Experimental data of several laboratories.
± gives the spread as reported.

Structure (SMILES)	target or system	assay	test system	setting	measurement	value
COc1cccc([C@]2(C)CCN(C[C@@H](NC(=O)[C@H]3Cc4ccc(O)cc4CN3)C(C)C)C[C@@H]2C)c1			rat, plasma	intraperitoneal, 5 mg/kg	half-life	41.4 h
CCOC(=O)C1=C[C@@H](OC(CC)CC)[C@H](NC(C)=O)[C@@H](N)C1		non-compartmental analysis	Sprague-Dawley rats, male, plasma	oral, 30 mg/kg, alone	half-life	3.9 ± 1.7 h
Cn1cccc1-c1cccnc1			rat	intravenous, preliminary data, added: nicotine	half-life	~2 h
CCCCCCCC(=O)N[C@@H](CCCCN)C(=O)N[C@@H](CCCCN)C(=O)N[C@@H](C)C(=O)N[C@@H](CC(C)C)C(=O)N[C@@H](CCCCN)C(=O)N[C@@H](CC(C)C)C(=O)N[C@@H](C)C(=O)N[C@@H](CCCCN)C(=O)N[C@@H](CCCCN)C(=O)N1CCC[C@H]1C(=O)N[C@@H](CC(C)C)C(=O)N[C@@H](CCCCN)C(=O)N[C@@H](CC(C)C)C(=O)N[C@@H](CC(C)C)C(=O)N[C@@H](CCCCN)C(N)=O			Sprague-Dawley rat, male, whole blood	intravenous infusion, 3 mg/kg, 1 h infusion	half-life	0.2 ± 0.1 h
CC(C)[C@@H](CN1CC[C@@](C)(c2cccc(O)c2)[C@@H](C)C1)NC(=O)[C@@H]1Cc2ccc(O)cc2CN1C			rat, plasma	intraperitoneal, 5 mg/kg	half-life	23.7 h
CC(=O)c1c([O-])cc(C)oc1=O.[Na+]			male Wistar rat, plasma	oral, 200 mg/kg, no CYP inhibitor	half-life	9.21 ± 1.25 h
CC(C)[C@@H](CN1CC[C@@](C)(c2cccc(O)c2)[C@@H](C)C1)NC(=O)[C@@]1(C)Cc2ccc(O)cc2CN1			rat, plasma	intraperitoneal, 5 mg/kg	half-life	29.3 h
COC(=O)[C@H]1[C@@H](OC(=O)c2ccccc2)C[C@@H]2CC[C@H]1N2		LC-MS/MS	Sprague-Dawley rat, whole blood	intraperitoneal, 20 mg/kg of cocaine	half-life	0.611 ± 0.0143 h
CC1(COc2ccc3c(c2)ncn3-c2ccc3cccc(N4CCC(N)CC4)c3n2)COC1	human coronavirus OC43	virus-induced cell killing	MRC-5	screen	maximum inhibition	11.7%
[Se]			rat, plasma	subcutaneous, 0.2 mg/kg, sodium selenate	half-life	4.75 h
COC[C@]12CN(C)[C@@H]3[C@@H]4[C@H](OC)[C@H]1[C@@]3([C@@H](OC)C[C@H]2O)[C@@H]1C[C@@]2(O)[C@H](OC(=O)c3ccccc3)[C@@H]1[C@]4(OC(C)=O)[C@@H](O)[C@@H]2OC			Sprague-Dawley rat, plasma	oral, dose not given, in PCW extract	half-life	8.8 ± 4.51 h
COc1ccc2c(c1)CN[C@@H](C(=O)N[C@H](CN1CC[C@@](C)(c3cccc(O)c3)[C@@H](C)C1)C(C)C)C2			Sprague-Dawley rat, plasma	intraperitoneal, 5 mg/kg	half-life	35.2 h
CC(=O)O[C@H]1C=C[C@H]2[C@H]3Cc4ccc(O)c5c4[C@@]2(CCN3C)[C@H]1O5		LC-MS/MS	male Sprague-Dawley rat, whole blood	intraperitoneal, 10 mg/kg of heroin	half-life	0.426 ± 0.0233 h
CCOc1ccn(-c2ccc(F)cc2)c(=O)c1C(=O)Nc1ccc(Oc2ccnc(N)c2Cl)c(F)c1	human coronavirus OC43	virus-induced cell killing	MRC-5	screen	maximum inhibition	2.48%
CC(C)(C)[C@H](NC(=O)[C@H](CCONC(=N)N)NC(=O)Cc1ccc(CNC(=N)N)cc1)C(=O)N[C@@H](CCONC(=N)N)C(=O)NCc1ccc(C(=N)N)cc1			Sprague Dawley rat, male, plasma	intravenous, 1 mg/kg	half-life	3 h
O=[Se](=O)([O-])[O-].[Na+].[Na+]			rat	intraperitoneal, 1 mg/kg	half-life	2.25 h
COc1ccc2c3c1O[C@H]1C[C@@H](OC(=O)c4ccccc4)C=C[C@@]31CCN(C)C2			Wistar rat, female, blood	intravenous, 5.0 mg/kg	half-life	0.91 h
CC(=O)N[C@@H](C)C(=O)N[C@H]1CSSC[C@@H](C(=O)O)NC(=O)[C@H](Cc2ccccc2)NC(=O)[C@@H]2CCCN2C(=O)[C@H](Cc2c[nH]c3ccccc23)NC(=O)[C@H](CC(C)C)NC(=O)[C@H](CC(C)C)NC(=O)[C@H](CC(=O)O)NC(=O)[C@H](Cc2ccccc2)NC(=O)[C@H](Cc2c[nH]cn2)NC(=O)[C@H]([C@@H](C)O)NC(=O)[C@H](Cc2ccccc2)NC1=O			Sprague-Dawley rat, male, plasma	intravenous	half-life	0.03 h
COC[C@@]12CC[C@H](OC)[C@]34C(C([C@H](OC)[C@H]13)[C@]1(OC(C)=O)[C@H]3[C@@H](OC(=O)c5ccccc5)[C@](O)(C[C@H]34)[C@@H](OC)[C@@H]1O)N(C)C2			Sprague-Dawley rat, plasma	oral, dose not given, with H in PCW extract	half-life	15.3 ± 8.49 h
CN1CC[C@]23c4c5ccc(O)c4O[C@H]2[C@@H](O[C@@H]2O[C@H](C(=O)O)[C@@H](O)[C@H](O)[C@H]2O)C=C[C@H]3[C@H]1C5		LC-MS/MS	male Sprague-Dawley rat, whole blood	intraperitoneal, 10 mg/kg of heroin	half-life	0.88 ± 0.155 h
Cc1ccc(S(=O)(=O)Nc2c(N[C@H]3CC[C@H](NC(=O)Nc4ccc(F)c(Cl)c4)CC3)c(=O)c2=O)cc1			rat, plasma	intravenous, 10 mg/kg	half-life	1.52 h
CC(=O)Oc1ccc2c3c1O[C@H]1[C@@H](OC(C)=O)C=C[C@H]4[C@@H](C2)N(C)CC[C@@]341		LC-MS/MS	Sprague-Dawley rat, male, whole blood	intraperitoneal, 10 mg/kg	half-life	0.0702 ± 0.0142 h
CCN1C[C@]2(COC)[C@H](O)C[C@H](OC)[C@@]34[C@@H]5C[C@@]6(O)[C@H](OC(=O)c7ccccc7)[C@@H]5[C@@](OC(C)=O)([C@@H]([C@H](OC)[C@H]23)[C@@H]14)[C@@H](O)[C@@H]6OC			Sprague-Dawley rat, plasma	oral, dose not given, in PCW extract	half-life	1.98 ± 0.187 h

For quick reference, copied from above:
Structure (SMILES)	target or system	assay	test system	setting	measurement	value
COc1cccc([C@]2(C)CCN(C[C@@H](NC(=O)[C@H]3Cc4ccc(O)cc4CN3)C(C)C)C[C@@H]2C)c1			rat, plasma	intraperitoneal, 5 mg/kg	half-life	41.4 h
CCOC(=O)C1=C[C@@H](OC(CC)CC)[C@H](NC(C)=O)[C@@H](N)C1		non-compartmental analysis	Sprague-Dawley rats, male, plasma	oral, 30 mg/kg, alone	half-life	3.9 ± 1.7 h
